Measured values of several laboratories.
Lines come from different studies, so protocols differ. Values joined by “and” are separate records of one study, mostly repeats; a detail may differ. Numbers after ± are the reported error.

Compound | assay | test system | conditions | CL/F
CN(C)C(=O)c1cc2cnc(Nc3ccc(N4CCNCC4)cn3)nc2n1C1CCCC1 |  | human, normal renal function | oral, 400 mg, single dose, adjusted geometric mean | 71.8 L/h
NC(=S)NN=Cc1ncccc1N |  | human, plasma | oral, single dose | 105 L/h
CN1C(=O)[C@@H](NC(=O)c2nnc(Cc3ccccc3)[nH]2)COc2cccnc21 |  | healthy human, fasted, plasma | oral, 100 mg single dose, geometric mean | 5.88 L/h
CCN1CCN(Cc2ccc(Nc3ncc(F)c(-c4cc(F)c5nc(C)n(C(C)C)c5c4)n3)nc2)CC1 |  | fasted healthy human subjects | oral, 150 mg, 3 × 50 mg capsule | 48 L/h
C[C@H](Oc1ccc(Br)cc1-c1ccon1)C(=O)O |  | healthy male humans, plasma | oral, 600 mg once daily, day 10 | 5.1 L/h
Cn1nnc2c(C(N)=O)ncn2c1=O |  | human patients, plasma | oral, 40 mg/m2, day 5, dose level DL5, median, together with: talazoparib 600 µg/m2 | 6.5 L/h/m2
Cn1cncc1[C@@](N)(c1ccc(Cl)cc1)c1ccc2c(c1)c(-c1cccc(Cl)c1)cc(=O)n2C |  | human patients | oral, 300 mg/m2, first dose, range | 148 to 2700 mL/min/m2
CCN1[C@@H](C(=O)NC23CCC(C(=O)O)(CC2)CC3)[C@H](c2cccc(Cl)c2F)[C@]2(C(=O)Nc3cc(Cl)ccc32)C12CCCCC2 |  | human | oral, single dose, mean across doses | 4.99 to 10 L/h
CNC(=O)n1ccc2cc(Oc3ccnc(NC(=O)c4ccc(C5CCN(CCO)CC5)cc4)c3)c(OCCOC)cc21 |  | healthy human, plasma | oral, 35 mg, geometric mean, together with: rabeprazole 20 mg | 299 L/h
O=C(O)CCC(=O)O.[2H]C([2H])([2H])Oc1cc(C)c2[nH]ccc2c1CN1CC[C@@H](C2CC2)C[C@H]1c1ccc(C(=O)O)cc1 | LC-MS/MS, mean | human, plasma | 600 mg, single dose, fasting | 2.78 L/h
O=C(Nc1nc2cccc(-c3ccc(CN4CCS(=O)(=O)CC4)cc3)n2n1)C1CC1 | population PK model | human, plasma | oral | 35 L/h
Cc1ncnc2c1ccn2[C@@H]1C[C@H](Oc2cc(C(F)F)c(F)c3c2CNCC3)[C@@H](O)[C@H]1O |  | human, plasma | 0.5 mg once daily | 12.4 L/h
CCOc1cc(CC(=O)N[C@@H](CC(C)C)c2ccccc2N2CCCCC2)ccc1C(=O)O |  | human | oral, substrate with omaveloxolone, together with: omaveloxolone once daily | 51.8 L/h
CC1(COc2ccc3c(c2)ncn3-c2ccc3cccc(N4CCC(N)CC4)c3n2)COC1 |  | human patients, recurrent/progressive HGG or DIPG, serum | oral, 170 mg/m^2, day 28, median | 18.5 L/h/m²
C=C[C@@H]1C[C@]1(NC(=O)[C@@H]1C[C@@H](Oc2ncc(OC)c3ccc(Cl)cc23)CN1C(=O)[C@@H](NC(=O)OC(C)(C)C)C(C)(C)C)C(=O)NS(=O)(=O)C1CC1 | population PK base model | human |  | 50.1 L/h
CNC(=O)c1c(C)oc2cc(Oc3ncnc4cc(OC)c(OC)cc34)ccc12 |  | healthy human subjects, plasma | oral, 5 mg, arithmetic mean, together with: dabigatran etexilate 150 mg | 0.966 L/h
C=CC(=O)NC1CCN(c2ncc3ncnc(Nc4ccc(Oc5ccc6c(c5)ncn6C)c(C)c4)c3n2)CC1 |  | human, plasma | oral, 240 mg single dose, fed, geometric mean | 7.44 L/h

Compound | assay | test system | conditions | CL/F
Cn1cc(-c2cn3nccc3c(-c3cnn([C@]4(CC#N)C[C@@H](C#N)C4)c3)n2)cn1 |  | healthy human fasted | 1600 mg single dose | 135 L/h
C[C@@H](N)c1cc(Cl)ccc1Cn1c(=S)[nH]c(=O)c2[nH]ccc21 |  | human, normal renal function, plasma | oral, 2.5 mg, geometric mean, single dose | 25.6 L/h
C#C[C@]1(CO)O[C@@H](n2cnc3c(N)nc(F)nc32)C[C@@H]1O |  | human, plasma | oral, 200 mg, single dose, geometric mean | 27.3 L/h
CCn1cc(C(=O)N2CCOCC2)c(=O)c2cc(NC3Cc4ccccc4C3)cnc21 |  | human, plasma | oral, 900 mg BID, day 7, fed, tablet, male | 19.6 L/h
C[C@@H]1CCO[C@H]2Cn3cc(C(=O)NCc4ccc(F)cc4F)c(=O)c(O)c3C(=O)N12 |  | human, haemodialysis patients | oral, steady state, fixed-dose combination | 0.7 L/h
COC(=O)N[C@@H](C)CNc1nccc(-c2cn(C(C)C)nc2-c2cc(Cl)cc(NS(C)(=O)=O)c2F)n1 |  | human, plasma | 50 mg, single dose, arithmetic mean, together with: posaconazole 400 mg twice daily | 9.2 L/h and 9.15 L/h
C#Cc1cccc(Nc2ncnc3cc(OCCOC)c(OCCOC)cc23)c1 |  | human | oral, 100 mg, day 1 | 8.1 ± 3.89 L/h
CC(C)c1nc(N(C)S(C)(=O)=O)nc(-c2ccc(F)cc2)c1/C=C/[C@@H](O)C[C@@H](O)CC(=O)O |  | human, plasma | 20 mg, day 2, mean, alone | 498 L/h
CC(C)c1nc(N(C)S(C)(=O)=O)nc(-c2ccc(F)cc2)c1/C=C/[C@@H](O)C[C@@H](O)CC(=O)O |  | human, plasma | 10 mg, alone, geometric mean | 272 L/h
COc1cc(N2CCC3(CCN(C)CC3)CC2)ccc1Nc1ncc(Cl)c(Nc2ccccc2P(C)(C)=O)n1 | population PK base model | human |  | 18.7 L/h
C[C@@H](Oc1ccc(S(C)(=O)=O)cc1C(=O)N1C[C@@H]2C[C@]2(c2cc(C(F)(F)F)on2)C1)C(F)(F)F | LC-MS/MS | young human subjects, plasma | oral, 75 mg twice daily, steady state, multiple doses | 7.8 L/h
CCCOc1ccc(NC(=O)CN2CCN(C)CC2)cc1-c1nc(CC)c(CC)c(=O)[nH]1 |  | human, fasting, plasma | oral, 10 mg, together with: alcohol 0.5 g/kg | 17.5 ± 2.78 L/h
Cn1c(=O)oc2ccc(-c3ccc(C[C@@H](C#N)NC(=O)[C@@H]4CNCCCO4)cc3)cc21 |  | human, severe renal impairment, plasma | oral, 25 mg single dose, mean | 9.97 L/h
CCCn1cc(C)c2c(=O)[nH]c(-c3cc(S(=O)(=O)N4CCN(CC)CC4)ccc3OCC)nc21 |  | human | oral, 100 mg, together with: alcoholic beverage 0.5 g/kg | 459 ± 260 L/h
C[C@@H](Oc1cc(-c2cnn(C3CCNCC3)c2)cnc1N)c1c(Cl)ccc(F)c1Cl |  | human patients, plasma | oral, cycle 2 day 1, geometric mean, together with: avelumab | 91 L/h
CN[C@H]1CC[C@@H](c2ccc(Cl)c(Cl)c2)c2ccccc21 |  | human | oral | 80.1 L/h
CC1(C)CC[C@]2(NC(=O)C(C)(F)F)CC[C@]3(C)[C@H](C(=O)C=C4[C@@]5(C)C=C(C#N)C(=O)C(C)(C)[C@@H]5CC[C@]43C)[C@@H]2C1 |  | human | 150 mg single dose, mean, alone | 115 L/h

Some of these lines once more:
Compound | assay | test system | conditions | CL/F
CN[C@H]1CC[C@@H](c2ccc(Cl)c(Cl)c2)c2ccccc21 |  | human | oral | 80.1 L/h
C[C@@H](N)c1cc(Cl)ccc1Cn1c(=S)[nH]c(=O)c2[nH]ccc21 |  | human, normal renal function, plasma | oral, 2.5 mg, geometric mean, single dose | 25.6 L/h
CC1(COc2ccc3c(c2)ncn3-c2ccc3cccc(N4CCC(N)CC4)c3n2)COC1 |  | human patients, recurrent/progressive HGG or DIPG, serum | oral, 170 mg/m^2, day 28, median | 18.5 L/h/m²
C[C@@H](Oc1ccc(S(C)(=O)=O)cc1C(=O)N1C[C@@H]2C[C@]2(c2cc(C(F)(F)F)on2)C1)C(F)(F)F | LC-MS/MS | young human subjects, plasma | oral, 75 mg twice daily, steady state, multiple doses | 7.8 L/h
